Assay results collected from several papers.
Several values in a cell are separate wells, animals, samples, runs or records. ± gives the spread as reported.

SMILES | test | test system | conditions | scale | quantity | value
COc1cc2c(Oc3ccc4[nH]c(C)cc4c3F)ccnc2cc1OCC1(N)CC1 | – | paediatric recurrent refractory sarcoma | concentration not given, whole group | – | grade 3 sinus bradycardia | 0%
Cn1cc(-c2nc(N[C@@H]3CCCC[C@@H]3N)c(F)c3c2C(=O)NC3)cn1 | item: Epistaxis | patients with relapsed or refractory AML | oral, dose not given, all doses | – | hemorrhagic adverse events | 26%
CO[C@H]1C[C@@H]2CC[C@@H](C)[C@@](O)(O2)C(=O)C(=O)N2CCCC[C@H]2C(=O)O[C@H]([C@H](C)C[C@@H]2CC[C@@H](OC(=O)NCCOCCOCCOCCOCCOCCOCCOCCOCCC(=O)N3CCc4cc(Cn5nc(-c6ccc7oc(N)nc7c6)c6c(N)ncnc65)ccc4C3)[C@H](OC)C2)C[C@@H](O)[C@H](C)/C=C(\C)[C@@H](O)[C@@H](OC)C(=O)[C@H](C)C[C@H](C)/C=C/C=C/C=C/1C | – | patients with advanced solid tumours | intravenous, 1.6 mg/3 mg weekly, any grade | – | incidence of Vomiting TEAE | 20%
Nc1nc2cc(-c3ccc4ncc(C(=O)N5CCOCC5)n4c3)ccc2o1 | – | advanced solid tumour patients | dose not given, drug-related, once-daily dosing | relative to: patients | grade ≥3 hyperglycaemia | 0%
O=C(Nc1ccccc1)C1CCN(C(=O)Oc2cccnc2)CC1 | – | healthy women | oral, 60 mg, 7 days | – | adverse event Asthenia | 14.3%
C[C@]1(CO)Cc2ncn(-c3ccc(C#N)c(Cl)c3)c2C(=O)O1 | – | Japanese subjects | 20 mg single dose | – | drug-related adverse event incidence | 33.3%
NCCCS(=O)(=O)O | – | human | oral, 265 mg twice daily, 2 h post-dose, week 65 | – | plasma concentration | 1130 ng/mL
CC(C)(O)c1cc(Nc2cc(Oc3cn(C4CC4)nc3C3CCOCC3)ccn2)ccn1 | Anemia | advanced cancer patients, dose escalation | oral, dose not given, 2 weeks on/off, all causality grade ≥3 | – | treatment-emergent adverse events | 0%
Cn1ncc(-c2nc(N[C@H]3CC[C@H](N)CC3)ncc2Cl)c1CC1CC1 | HPLC-MS/MS | patients, plasma | oral, 11 mg, day 1 | – | Cmax | 27.8 ng/mL
CCc1ccc(CC/C=C/c2ccc3c(c2)C(=O)CC3)cc1 | – | Sprague-Dawley rat, female, serum | oral, 30 mg/kg/day, 14 days | – | total protein | 53.9 g/L
COc1ccc([C@@H](O)c2cc(-c3ncnc4cc(N5CCOCC5)ccc34)c(F)cc2Cl)nn1 | – | patients, advanced solid tumours | oral, 300 mg twice daily, treatment-emergent, together with: avelumab | – | hyponatraemia incidence | 4%
COc1cccc(N=Nc2ccc3[nH]cc(CCN(C)C)c3c2)c1 | light irradiation | solution | together with: light 385 nm | – | cis isomer at photostationary state | 81%
CCCCCCCCCCCCCCCC(=O)N[C@@H](CCC(=O)NCCCC[C@H](NC(=O)[C@H](CC(=O)O)NC(=O)[C@H](CO)NC(=O)[C@@H](NC(=O)[C@H](Cc1ccccc1)NC(=O)[C@@H](NC(=O)CNC(=O)[C@H](CCC(N)=O)NC(=O)[C@H](CO)NC(=O)[C@@H](N)Cc1c[nH]cn1)[C@@H](C)O)[C@@H](C)O)C(=O)N[C@@H](CO)C(=O)N[C@@H](CCC(=O)O)C(=O)N[C@@H](Cc1ccc(O)cc1)C(=O)N[C@@H](CC(C)C)C(=O)N[C@@H](CC(=O)O)C(=O)N[C@@H](CO)C(=O)N[C@@H](CCC(=O)O)C(=O)N[C@@H](CCCNC(=N)N)C(=O)N[C@@H](C)C(=O)N[C@@H](CCCNC(=N)N)C(=O)N[C@@H](CC(=O)O)C(=O)N[C@@H](Cc1ccccc1)C(=O)N[C@H](C(=O)N[C@@H](C)C(=O)N[C@@H](Cc1c[nH]c2ccccc12)C(=O)N[C@@H](CC(C)C)C(=O)N[C@@H](CCC(=O)O)C(=O)N[C@@H](C)C(=O)NCC(=O)NCC(=O)O)C(C)C)C(=O)O | item: decreased appetite | human, CrCl ≥20 to <30 mL/min | subcutaneous, 100 µg single dose | – | treatment-related adverse events | 0%
CC(=O)c1c(C)c2cnc(Nc3ccc(C4CCN(CCS(C)(=O)=O)CC4)cn3)nc2n(C2CCCC2)c1=O | – | HR+/HER2- advanced breast cancer patients | oral, 100 mg bid, grade 3/4, monotherapy arm | – | patients with anaemia | 0%
CC(C)n1c(C2CCNCC2)nc2c([N+](=O)[O-])c(Br)c(Br)cc21 | item: Anemia | AML patients | dose not given, all doses | – | grade ≥3 adverse events | 29%
N[C@@H]1c2ccccc2OC12CCN(c1cnc3c(N4CCCc5ncccc54)n[nH]c3n1)CC2 | – | advanced solid tumour patients | oral, 50 mg once daily | – | TEAE causing dose reduction | 0%
O=S(=O)(Nc1ccccc1)c1ccc(NC(=S)Nc2ccccc2)cc1 | item: EO% | male mouse, blood | oral, 20 mg/kg daily, 14 days | – | blood cell fraction | 0.67%
CC[C@H](C)[C@H](NC(=O)[C@H](Cc1ccccc1)NC(=O)[C@H](CCC(=O)O)NC(=O)[C@H](CCCNC(=N)N)NC(=O)[C@H](C)NC(=O)[C@H](C)NC(=O)[C@H](CCC(N)=O)NC(=O)[C@H](CCC(=O)O)NC(=O)[C@H](CCC(=O)O)NC(=O)[C@H](CC(C)C)NC(=O)[C@H](Cc1ccc(O)cc1)NC(=O)[C@H](CO)NC(=O)[C@H](CO)NC(=O)[C@@H](NC(=O)[C@H](CC(=O)O)NC(=O)[C@H](CO)NC(=O)[C@@H](NC(=O)[C@H](Cc1ccccc1)NC(=O)[C@@H](NC(=O)CNC(=O)[C@H](CCC(=O)O)NC(=O)[C@H](C)NC(=O)CCc1cnc[nH]1)[C@@H](C)O)[C@@H](C)O)C(C)C)C(=O)N[C@@H](C)C(=O)N[C@@H](Cc1c[nH]c2ccccc12)C(=O)N[C@@H](CC(C)C)C(=O)N[C@H](C(=O)N[C@@H](CCCNC(=N)N)C(=O)NCC(=O)N[C@@H](CCCNC(=N)N)C(=O)N[C@@H](CCCCNC(=O)COCCOCCNC(=O)COCCOCCNC(=O)CC[C@H](NC(=O)CCCCCCCCCCCCCCCCC(=O)O)C(=O)O)C(=O)NCC(=O)NCC(=O)N[C@@H](CO)C(=O)N[C@@H](CCSC)C(=O)N[C@H](C(=O)N[C@@H](CCCCNc1c(NCCCCCN(O)C(=O)CCC(=O)NCCCCCN(O)C(=O)CCC(=O)NCCCCCN(O)C(C)=O)c(=O)c1=O)C(=O)O)C(C)C)C(C)C [zirconium-89 labelled] | ex vivo gamma counting | male Sprague-Dawley rats, duodenum | intravenous, 5 MBq (1 nmol), 72 h | – | tissue uptake | 0.105 %ID/g and 0.079 %ID/g and 0.088 %ID/g
CN(C)C1(CNC(=O)c2ccc3c(c2)CCN3C(=O)c2ccccc2)CCOCC1 | – | male C57BL/6 mice | intraperitoneal, 50 mg/kg, 30 min | – | unbound plasma concentration | 2650 nM
COc1ccc2nc3cc(Cl)ccc3c(Nc3cc(CN4CCCC4)c(O)c(CN4CCCC4)c3)c2n1 | – | mouse, blood | intraperitoneal, 57 mg/kg | – | monocyte count | 0.22 10⁹/L
C1=Cc2nc1cc1ccc([n-]1)c(C1CC1)c1nc(cc3ccc([n-]3)c2C2CC2)C=C1.CC(=O)[O-].[Mn+3] | LC-MS/MS | Sprague-Dawley rat, plasma | oral gavage, dose not given, 240 min | – | mean plasma concentration | 299 ng/mL
C[C@]1(O)C[C@@](N)(c2ccc(-c3nc4n(c3-c3ccccc3)COc3ccncc3-4)cc2)C1 | – | human, advanced or metastatic solid tumours | 20 mg once daily, phase I dose escalation | – | patients with AST increased | 33.3%
C[C@@H](NC(=O)N1C(=O)[C@H](Cc2ccnc(N)c2)[C@H]1C(=O)O)C1CCCCC1 | – | healthy adult Chinese volunteers | continuous intravenous infusion, 0.3 mg/kg/h, 5-day infusion, CTCAE 5.0 grading | – | incidence of AEs leading to death | 0%
CCCCCCC#Cc1cncc(-c2nnc(SCc3ccc([N+](=O)[O-])o3)n2C2CC2)c1 | – | human plasma | plasma stability | – | t1/2 | 259 min
O=C(O)CCCOc1ccc(F)cc1-c1cc(-c2ccccc2C(F)(F)F)n(-c2ccccc2)n1 | item: ALP | Crl:CD(SD) rats, female, serum | iv, 25 µg/kg, 14 days | – | serum enzyme activity | 108 ± 19 U/L
CCN1[C@@H](C(=O)NC23CCC(C(=O)O)(CC2)CC3)[C@H](c2cccc(Cl)c2F)[C@]2(C(=O)Nc3cc(Cl)ccc32)C12CCCCC2 | – | patients with advanced solid tumours | oral, 150 mg | – | grade ≥3 adverse event incidence | 87.5%
Cn1c(-c2ccc(C(N)=O)cc2F)nnc1C(C)(C)Oc1c(F)cc(Cl)cc1F | – | human | oral, 3 mg, single ascending dose, incl. administration site | – | general disorder TEAE | 16.7%
CC(C)CC(=O)OC[C@H]1O[C@@](C#N)(c2ccc3c(N)ncnn23)[C@H](O)[C@@H]1O | plasma protein binding | dog plasma | 9 µM | – | bound fraction | 0.722
CC1(C)[C@H](C(=O)O[C@H](C#N)c2cccc(Oc3ccccc3)c2)[C@@H]1C=C(Br)Br | item: CYP2C19 | human, age 1 year, recombinant human CYP2C19 | 0.1 µM | – | enzyme contribution to clearance | 0.47%
[O-][S+]1CCc2nc(N3CCC(c4ncc(Cl)cn4)CC3)nc(NC3(CO)CCC3)c21 (stereo not drawn) | item: gastrointestinal disorders | healthy male humans | 12 mg twice daily | – | adverse event incidence | 12.5%
